Results pooled from the literature.
Compare with care: the assays were run in different laboratories. ± gives the spread as reported.

SMILES	target or system	assay	system	conditions	scale	endpoint	value
C=CC(=O)Nc1cccc(Cn2ncc3cnc(Nc4cnn(CCOC)c4)nc32)c1	PDGFRB human	binding, KINOMEscan	–	100 nM	lower = stronger binding	percent of control	17%
Cc1ncsc1-c1ccc(C(C)NC(=O)C2CC(O)CN2C(=O)C(NC(=O)CCCCCCCCCCN2CCCC(Nc3ncc(Cl)c(Nc4ccccc4S(=O)(=O)C(C)C)n3)C2)C(C)(C)C)cc1 (stereo not shown)	22Rv1	RNA-seq, item: TWIST1 mRNA	–	concentration not given	reference: DMSO	log2 fold change	-1.76
CCN(C(=O)c1cc(F)ccc1Oc1nncnc1N1CCC2(C1)CN([C@H](CCCN(C)CCOC)C(C)C)C2)C(C)C	SNB-75	–	brain	72 h	–	GI50	> 10 µM
COc1cc(O)ccc1CCC(c1ccc(O)cc1)c1cc2c(c(C)c1O)OC(c1ccc(O)cc1)CC2 (mixture of isomers)	–	item: docosahexaenoic acid	human whole blood	0.3 µM, with: Escherichia coli	–	amount	38700 ± 3520 pg/mL blood
CN1CCCNC(=O)c2cccc(c2)C(=O)NCCCN(C)CCCNc2cccc3c2C(=O)c2cccc(c2C3=O)NCCC1	SAS	RNA-Seq, item: ZFYVE27 mRNA	–	1 µM, 6 h	reference: untreated cells	log2 fold change	-2.24
CCN(CC)CC(=O)Nc1cccc(-n2cc(-c3ccc4ccc(-c5cn(-c6cccc(NC(=O)CN(CC)CC)c6)nn5)cc4c3)nn2)c1	RCC4	PCR angiogenesis array, item: TIMP3	–	5 x IC50, 6 h, normoxia	reference: untreated	fold regulation	1.41 fold
COC1CN([C@H]2CC[C@H]([C@@]3(C)Oc4c(Cl)cc(C(=O)NCc5c(SC)cc(C)[nH]c5=O)c(C)c4O3)CC2)C1	–	RNA-seq, item: SPTBN4 mouse homolog	mouse, HT-1376 xenograft, whole blood	dose not given	reference: vehicle	log2 fold change	2.84
Cc1n[nH]c(C)c1-c1cc2c(N3CCC[C@H](C(=O)NCc4ccc(OC(F)(F)F)cc4)C3)ncnc2[nH]1	NCI-H2228	cell growth or viability, MTT	–	0.008 µg/mL, 72 h	–	inhibition	50.9%
Nc1ncc(-c2cc(-c3cnn(CC(F)(F)F)c3)ncc2F)nc1C(=O)NC1CNCC(F)C1 (stereo not shown)	PLK3	KINOMEscan	–	1 µM	reference: DMSO control	remaining binding	65%
O=C(NCc1ccc(OC(F)(F)F)cc1)[C@H]1CCCN(c2ncnc3[nH]c(-c4cccnc4)cc23)C1	NCI-H2228	cell growth or viability, MTT	–	1 µg/mL, 72 h	–	inhibition	72%
CC(C)c1ccc(N(C)c2ccc3c(c2)OCC[C@H]3CNc2cnccc2C(=O)O)cc1	SCC-9	cell viability	–	7 days	–	IC50	≥ 10 µM
Cc1cc(NC2CCN(C)CC2)ccc1-c1cc2c(N3CCC[C@H](C(=O)NCc4ccc(Cl)nc4)C3)ncnc2[nH]1	NCI-H2228	cell growth or viability, MTT	–	0.2 µg/mL, 72 h	–	inhibition	18.9%
CNS(=O)(=O)Nc1nccc(Cc2c(C)c3ccc(Oc4ncccc4F)cc3oc2=O)c1F	NCI-H2347	cell viability	–	7 days	–	IC50	0.00831 µM

Some of these lines once more:
SMILES	target or system	assay	system	conditions	scale	endpoint	value
CN1CCCNC(=O)c2cccc(c2)C(=O)NCCCN(C)CCCNc2cccc3c2C(=O)c2cccc(c2C3=O)NCCC1	SAS	RNA-Seq, item: ZFYVE27 mRNA	–	1 µM, 6 h	reference: untreated cells	log2 fold change	-2.24
